Published values collected from several papers.
Every numbered part comes from another study and shows a few of its results, in no order. Substitutions count along the parent as printed.

Block 1 — method: DHFR PCA, deep sequencing; matrix: yeast; together with: (+)-ABA 0.11 µM; reference: wild-type fitted maximum; reading: higher = stronger binding; measurement: relative binding score
Target: ABI1, truncated, D143A, DHFR fusion (Arabidopsis thaliana)
Notes: methotrexate growth selection, single substitutions
Parent: PYL1, truncated, DHFR fusion (Arabidopsis thaliana); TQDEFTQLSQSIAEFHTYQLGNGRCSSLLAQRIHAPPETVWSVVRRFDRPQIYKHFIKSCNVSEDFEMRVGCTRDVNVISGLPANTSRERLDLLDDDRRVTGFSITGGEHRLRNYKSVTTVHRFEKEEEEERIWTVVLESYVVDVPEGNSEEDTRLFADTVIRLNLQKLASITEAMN; partner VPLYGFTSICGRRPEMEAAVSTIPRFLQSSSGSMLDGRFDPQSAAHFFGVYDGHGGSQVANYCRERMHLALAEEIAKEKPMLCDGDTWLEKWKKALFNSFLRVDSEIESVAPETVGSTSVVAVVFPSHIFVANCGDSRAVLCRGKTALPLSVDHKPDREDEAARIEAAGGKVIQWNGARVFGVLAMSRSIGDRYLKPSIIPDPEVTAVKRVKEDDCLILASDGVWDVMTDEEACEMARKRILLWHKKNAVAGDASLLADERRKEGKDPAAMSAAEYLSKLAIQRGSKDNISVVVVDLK
N85E: 47.5%
F124Y: 31.8%
V62G: 1.73%
E131F: 14.4%
E151N: 1.29%
R74K: -1.51%
G148M: -6.55%
L156Q: 4.88%
E139K: 8.43%
V145S: -13.6%
V100Q: -10.2%
T154I: 21.6%
T73E: 39.2%
E38W: 8.65%
R123A: 54.3%
R88Q: 38.5%

Block 2 — method: protein binding microarray; form: double-stranded DNA, one strand shown; matrix: in vitro; tested at: not given; reference: not given; reading: higher = stronger binding; measurement: E-score
Target: Histone acetyltransferase KAT6A, winged helix 1, GST fusion (KAT6A, Homo sapiens, UniProt Q92794, residues 1-85)
Notes: 8-mer, flanks averaged, mean of 2 arrays, mostly near background
Construct (chain): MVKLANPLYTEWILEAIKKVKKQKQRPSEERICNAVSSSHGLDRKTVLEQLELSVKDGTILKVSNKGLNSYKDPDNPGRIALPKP
ACCCTAGG: -0.237
ACCAGGGG: -0.0503
AATCAAAC: -0.14
ATCGACTG: -0.201
ATCGTTAC: 0.0167
CTCGGTTA: 0.0421
CTCAAGTA: -0.146
CAAGACGC: 0.0874
GAGGAGTA: -0.128
AACTGATC: -0.0765
AAACCCAT: -0.143
CGGCGCGC: 0.469
ATTCCTGC: -0.026
GCATGTAC: -0.0385
GAAAGTTC: -0.0585
CAGGAAAG: -0.0437
CGGGCGCA: 0.395
GCCGCAGA: 0.262
AACCGCTA: 0.164
AGTTCTGC: 0.19
TCGAGACA: -0.137
GGCGAACC: 0.268
AAATCTCA: -0.204
ATTTATGA: -0.154
CGAATACA: -0.0917

Block 3 — target: CCNA2, cyclin fold, Cln2 fusion (human); method: yeast growth competition, sequencing; matrix: yeast; notes: strong parent motif; reference: not given; reading: higher = stronger binding; measurement: normalised enrichment score
Parent: RB1 docking peptide (human); PKPLKKLRFDIEG
PKPLKKLRIDIEG [F9I]: 0.125
PRPLKKLRFDIEG [K2R]: 0.813
PKPLKKLRFWIEG [D10W]: 2.04
PKPLDKLRFDIEG [K5D]: -0.211
PIPLKKLRFDIEG [K2I]: 2.28
PKPLKKLRFEIEG [D10E]: 0.255
PKPLKKLRVDIEG [F9V]: 0.535
PKPGKKLRFDIEG [L4G]: 1.55
PKPLKELRFDIEG [K6E]: -0.0546
PKPLKKLRFDIPG [E12P]: 1.72
PKPLKKLRFDGEG [I11G]: 0.977
PKPLKKLRFDPEG [I11P]: 1.63
PEPLKKLRFDIEG [K2E]: 0.992
PKPLKKLVFDIEG [R8V]: 1.65
PKPLKKLWFDIEG [R8W]: -0.0356
PKPLKKLRFDIEA [G13A]: 1.16
PKPLKKLRFDIGG [E12G]: 2.13
HKPLKKLRFDIEG [P1H]: 1.31
PKPLKKLQFDIEG [R8Q]: 1.3
PKPLKKLRFDQEG [I11Q]: 0.338

Block 4 — target: UBE2V2 UBC core domain (UniProt Q15819); method: yeast two-hybrid; matrix: yeast; notes: mostly zero background; reference: not given; reading: higher = stronger interaction; measurement: lacZ reporter activity
B1: MEX3B RING domain (UniProt Q6ZN04); chain SGLRRKGSRDCSVCFESEVIAALVPCGHNLFCMECANRICEKSEPECPVCHTAVTQAIRIF
B2: RNF187 RING domain (UniProt Q5TA31); chain ALPAGPAEAACALCQRAPREPVRADCGHRFCRACVVRFWAEEDGPFPCPECADDCWQRAVEP
B3: TRIM26 RING domain (UniProt Q12899); chain PLRSLEEEVTCSICLDYLRDPVTIDCGHVFCRSCTTDVRPISGSRPVCPLCKKPFKKENIRP
B4: RNF183 RING domain (UniProt Q96D59); chain EQQGRELEAECPVCWNPFNNTFHTPKMLDCCHSFCVECLAHLSLVTPARRRLLCPLCRQPTVLASGQP
Construct (chain): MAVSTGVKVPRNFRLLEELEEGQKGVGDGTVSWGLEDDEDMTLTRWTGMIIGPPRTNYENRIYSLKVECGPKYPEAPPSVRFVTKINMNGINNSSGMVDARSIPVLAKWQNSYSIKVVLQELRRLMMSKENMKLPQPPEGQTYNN
AEADPLGRFTCPVCLEVYEKPVQVPCGHVFCSACLQECLKPKKPVCGVCRSALAPGVRAV (RNF114 RING domain (UniProt Q9Y508)): 0
B1 (MEX3B RING domain): 0
B2 (RNF187 RING domain): 0
QVQSRTKIEECVVCSDKKAAVLFQPCGHMCACENCANLMKKCVQCRAVVERRVPFI (MIB1 RING domain (UniProt Q86YT6)): 0
B3 (TRIM26 RING domain): 0
B4 (RNF183 RING domain): 0

Block 5 — method: universal PBM; form: double-stranded DNA, one strand shown; matrix: in vitro; tested at: not given; reading: higher = stronger binding; measurement: E-score
Target: Sal-like protein 4, full length isoform B (SALL4, Homo sapiens, UniProt Q9UJQ4-2, residues 1-616)
Notes: 8-mer, flanks averaged, mean of replicates
Target sequence (chain): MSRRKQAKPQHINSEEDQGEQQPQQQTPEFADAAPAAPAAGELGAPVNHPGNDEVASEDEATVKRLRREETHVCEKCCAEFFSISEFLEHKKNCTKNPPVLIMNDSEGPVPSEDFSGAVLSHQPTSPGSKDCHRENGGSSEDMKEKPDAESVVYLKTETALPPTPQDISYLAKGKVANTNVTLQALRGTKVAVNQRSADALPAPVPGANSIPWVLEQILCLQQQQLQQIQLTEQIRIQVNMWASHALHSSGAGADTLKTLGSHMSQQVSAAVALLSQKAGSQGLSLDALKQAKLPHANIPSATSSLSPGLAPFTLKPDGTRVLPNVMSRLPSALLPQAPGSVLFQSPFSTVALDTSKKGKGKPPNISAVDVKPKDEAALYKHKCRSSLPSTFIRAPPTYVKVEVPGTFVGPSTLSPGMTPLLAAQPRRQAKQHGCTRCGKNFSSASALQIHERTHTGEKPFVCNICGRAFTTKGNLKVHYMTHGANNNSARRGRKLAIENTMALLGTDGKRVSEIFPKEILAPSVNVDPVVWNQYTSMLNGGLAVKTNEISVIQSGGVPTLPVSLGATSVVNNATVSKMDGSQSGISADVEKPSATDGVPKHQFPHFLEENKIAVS
TCGGCAAA: -0.23
CGTCCCAG: -0.197
ACTTCACC: -0.00168
CGTGGGAC: -0.24
CTACGGCA: -0.0917
ATAGCACC: 0.168
GGGTCGCA: -0.127
ACGAACAT: 0.206
AGTGCGTA: 0.0137
CACCGCCA: -0.198
CGGCAAGC: -0.203
CAGCAAGG: -0.218
CGTGACGC: -0.0161
CCGCCTAC: -0.0534
AACCTGAA: -0.0578
AGAGGCGA: -0.156
ACGATTGC: 0.0764
AGAGCGAC: -0.171
GTCCCACA: -0.116
CGTTTAAC: 0.177
ATATCAAA: 0.36
CGAGATCA: -0.0607
AGATGCTC: -0.122
GGGCACCA: -0.289
CTGCTTTA: 0.0716

Repeated from above (block 3):
PKPLKKLRIDIEG [F9I]: 0.125
PRPLKKLRFDIEG [K2R]: 0.813
PKPLKKLRFWIEG [D10W]: 2.04
PKPLDKLRFDIEG [K5D]: -0.211
PIPLKKLRFDIEG [K2I]: 2.28
PKPLKKLRFEIEG [D10E]: 0.255
PKPLKKLRVDIEG [F9V]: 0.535
PKPGKKLRFDIEG [L4G]: 1.55
PKPLKELRFDIEG [K6E]: -0.0546
